{"data": "Results from different studies", "note": "Compare with care: the assays were run in different laboratories. Values joined by “and” are separate records of one study, mostly repeats; a detail may differ. Numbers after ± are the reported error.", "UniProt P50613, sequence (whole entry, looked up)": "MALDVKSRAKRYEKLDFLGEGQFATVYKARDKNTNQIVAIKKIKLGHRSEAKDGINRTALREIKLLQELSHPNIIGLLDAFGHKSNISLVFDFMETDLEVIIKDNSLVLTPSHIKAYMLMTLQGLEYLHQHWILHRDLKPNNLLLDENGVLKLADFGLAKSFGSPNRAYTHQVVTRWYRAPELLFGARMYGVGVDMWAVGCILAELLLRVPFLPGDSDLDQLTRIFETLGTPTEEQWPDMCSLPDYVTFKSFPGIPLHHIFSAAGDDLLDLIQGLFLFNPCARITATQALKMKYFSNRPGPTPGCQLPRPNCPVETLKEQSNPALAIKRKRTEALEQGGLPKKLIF", "UniProt P10635, sequence (whole entry, looked up)": "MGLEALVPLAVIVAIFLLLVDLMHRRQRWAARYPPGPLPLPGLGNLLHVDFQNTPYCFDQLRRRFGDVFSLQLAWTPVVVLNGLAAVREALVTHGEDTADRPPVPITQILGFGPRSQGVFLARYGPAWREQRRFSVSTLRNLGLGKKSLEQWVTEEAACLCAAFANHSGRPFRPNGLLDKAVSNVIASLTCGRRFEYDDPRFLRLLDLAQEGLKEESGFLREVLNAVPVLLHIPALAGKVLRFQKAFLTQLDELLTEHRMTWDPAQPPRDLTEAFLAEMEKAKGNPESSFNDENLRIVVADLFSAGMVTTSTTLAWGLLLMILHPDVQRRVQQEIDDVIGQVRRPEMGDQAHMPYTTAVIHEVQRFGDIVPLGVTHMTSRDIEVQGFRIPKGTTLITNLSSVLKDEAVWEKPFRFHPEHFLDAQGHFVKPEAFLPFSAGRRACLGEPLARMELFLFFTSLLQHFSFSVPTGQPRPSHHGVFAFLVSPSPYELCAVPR"}
{"Compound": "O=C1C2CC3CC1CC(C(=O)N1CCN(c4ccc([N+](=O)[O-])c5ncccc45)CC1)(C3)C2", "target or system": "Escherichia coli", "test": "Ames test", "system": "WP2 uvrA pKM101", "setting": "0.78 µg/well, without S9 activation", "endpoint": "revertant colony count", "result": "25 colonies/well"}
{"Compound": "CC(C)C[C@H](NC(=O)[C@H](Cc1ccc(O)cc1)NC(=O)[C@@H](CCCNC(=N)N)NC(=O)[C@@H](CO)NC(=O)[C@H](Cc1ccccc1)NC(=O)[C@H](CC1CCCCC1)NC(=O)[C@H](CC(=O)O)NC(=O)CN1CCN(CC(=O)O)CCN(CC(=O)O)CCN(CC(=O)O)CC1)C(=O)N[C@@H](Cc1c[nH]c2ccccc12)C(=O)N[C@@H](CO)C(=O)O [copper-64 labelled]", "system": "human, thyroid", "setting": "concentration not given, 3 h", "endpoint": "activity concentration", "result": "2650 Bq/mL and 1740 Bq/mL and 1420 Bq/mL and 2340 Bq/mL and 1480 Bq/mL and 1790 Bq/mL"}
{"Compound": "Cc1nn(-c2cccc(N)c2)c(=O)c2cnc(Nc3ccc(N4CCNCC4)cc3)nc12", "target or system": "Cyclin-dependent kinase 7, with cyclin H, MAT1 (CDK7, Homo sapiens, UniProt P50613)", "test": "inhibitor, SelectScreen kinase", "endpoint": "IC50", "result": "> 10 µM"}
{"Compound": "Nc1ncc(-c2cc(-c3cnn(CC(F)(F)F)c3)ncc2F)nc1C(=O)NC1CNCC(F)C1 (stereo not drawn)", "target or system": "MEK5", "test": "KINOMEscan", "setting": "1 µM", "scale": "relative to: DMSO control", "endpoint": "remaining binding", "result": "15%"}
{"Compound": "N=C(N)NCCC[C@@H]1NC(=O)[C@H](CCCNC(=N)N)NC(=O)[C@@H](CCCNC(=N)N)NC(=O)[C@@H](CCCNC(=N)N)NC(=O)[C@@H](C(c2ccccc2)c2ccccc2)NC(=O)[C@@H](Cc2c[nH]c3ccccc23)NC(=O)[C@@H](C(c2ccccc2)c2ccccc2)NC1=O", "target or system": "Blastomyces dermatitidis", "system": "BD-1", "endpoint": "MIC", "result": "2 µg/mL"}
{"Compound": "C=CC(=O)N1[C@@H](c2ccc3c(c2)OCO3)c2[nH]c3ccccc3c2C[C@H]1C(=O)N1CCN(C)CC1", "target or system": "human cyclin E1 N112C-3xFLAG:CDK2", "test": "co-IP with TMT proteomics, measured: HSPA8", "setting": "concentration not given, P11142", "scale": "relative to: wild type DMSO", "endpoint": "relative co-enrichment", "result": "102%"}
{"Compound": "C=CC(=O)Nc1cccc(Cn2ncc3cnc(Nc4cnn(CCOC)c4)nc32)c1", "target or system": "MARK3 human", "test": "binding, KINOMEscan", "setting": "100 nM", "scale": "lower = stronger binding", "endpoint": "percent of control", "result": "100%"}
{"Compound": "CC(C)(C)c1cc(-c2ccc3cccnc3n2)nc(-c2ccc3cccnc3n2)c1.COc1ccncc1.[Cl-].[Cl-].[Ru+2].c1ccc2cc3nc4c5cccnc5c5ncccc5c4nc3cc2c1", "target or system": "B16-F10", "test": "resazurin", "setting": "with: light 733 nm, 9 mW, 100 J/cm2", "endpoint": "EC50", "result": "2.41 µM"}
{"Compound": "Cc1ncsc1-c1ccc(C(C)NC(=O)C2CC(O)CN2C(=O)C(NC(=O)CCCCCCCCCCN2CCCC(Nc3ncc(Cl)c(Nc4ccccc4S(=O)(=O)C(C)C)n3)C2)C(C)(C)C)cc1 (stereo not drawn)", "target or system": "22Rv1", "test": "RNA-seq, measured: LYSMD1 mRNA", "setting": "concentration not given", "scale": "relative to: DMSO", "endpoint": "log2 fold change", "result": -1.1}
{"Compound": "CNS(=O)(=O)Nc1nccc(Cc2c(C)c3ccc(Oc4ncccc4F)cc3oc2=O)c1F", "target or system": "NCI-H650", "test": "cell viability", "setting": "7 days", "endpoint": "IC50", "result": "> 1 µM"}
{"Compound": "O=C(N/N=C/c1ccc2c(ccc[n+]2Cc2ccccc2)c1)c1cc(C(=O)N/N=C/c2ccc3c(ccc[n+]3Cc3ccccc3)c2)ncn1", "target or system": "telomeric G4 DNA hybrid-2", "test": "FRET melting", "setting": "1 µM, DNA 0.2 µM, with: duplex DNA competitor 10 µM", "endpoint": "ΔTm", "result": "10 ± 5.4 °C"}
{"Compound": "CNC(=O)C1CCCN(C(=O)C2CC3CCC2N3C(=O)[C@@H]2C[C@@H](O)CN2C(=O)NCc2cccc(Cl)c2F)C1 (mixture of isomers)", "target or system": "Cytochrome P450 2D6 (CYP2D6, Homo sapiens, UniProt P10635)", "test": "enzyme activity, inhibitor, time-dependent inhibition", "setting": "0.0686 µM, preincubated without NADPH", "endpoint": "dextrorphan formation", "result": "152 ng/mL"}
{"Compound": "O=C(Nc1cnccc1-c1ccc([18F])nc1)c1ccnc(NC(=O)C2CC2)c1", "test": "ex vivo gamma counting", "system": "FVB/NJ mice, both sexes, adipose tissue", "setting": "intravenous, 120 min, with: tariquidar 15 mg/kg iv", "endpoint": "mean SUV", "result": 0.079}
{"Compound": "C[n+]1ccc(/C=N/NC(=O)N/N=C/c2cc[n+](C)c3ccccc23)c2ccccc21", "target or system": "telomeric G4 DNA hybrid-2", "test": "FRET melting", "setting": "1 µM, DNA 0.2 µM, with: duplex DNA competitor 10 µM", "endpoint": "ΔTm", "result": "2.4 ± 0.5 °C"}
{"Compound": "C=C(NC(=O)c1csc(-c2nc3c(cc2O)-c2nc(cs2)C(=O)NC(C(C)O)C(=O)NC(=C(C)OC)c2nc(cs2)C(=O)NC2c4nc(cs4)C(=O)NC(COC(=O)c4c5c6c(cccc6n4O)COC(=O)C(OC4CC(C)(O)C(N(C)C)C(C)O4)C2OC5)c2nc-3cs2)n1)C(N)=O (stereo not drawn)", "target or system": "Streptococcus pneumoniae", "system": "-4, immunocompromised mice, lung infection, lung", "setting": "2 mg/kg/day three times daily, 24 h post-dose", "endpoint": "bacterial load", "result": "4.15 log CFU/g"}
{"Compound": "CCCC[C@H](NC(=O)COCCOCCNC(=O)CN1CCN(CC(=O)O)CCN(CC(=O)O)CC1)C(=O)N[C@H]1CC(=O)NCCCC[C@@H](C(N)=O)NC(=O)[C@H](Cc2c[nH]c3ccccc23)NC(=O)[C@H](CCCNC(=N)N)NC(=O)[C@@H](Cc2ccccc2)NC(=O)[C@H](Cc2c[nH]cn2)NC1=O [technetium-99m labelled]", "system": "C57 mouse, blood", "setting": "intravenous, 0.037 MBq, 2 h", "endpoint": "tissue uptake", "result": "0.24 ± 0.07 %ID/g"}
{"Compound": "O=C(N/N=C/c1cc[n+](Cc2ccccc2)c2ccccc12)c1cccc(C(=O)N/N=C/c2cc[n+](Cc3ccccc3)c3ccccc23)c1", "target or system": "telomeric G4 DNA hybrid-2", "test": "FRET melting", "setting": "1 µM, DNA 0.2 µM, with: duplex DNA competitor 10 µM", "endpoint": "ΔTm", "result": "12.5 ± 0.3 °C"}
{"Compound": "CCCC[C@H](NC(=O)CCCCCCCNC(=O)CN1CCN(CC(=O)O)CCN(CC(=O)O)CC1)C(=O)N[C@H]1CC(=O)NCCCC[C@@H](C(N)=O)NC(=O)[C@H](Cc2c[nH]c3ccccc23)NC(=O)[C@H](CCCNC(=N)N)NC(=O)[C@@H](Cc2ccccc2)NC(=O)[C@H](Cc2c[nH]cn2)NC1=O [technetium-99m labelled]", "system": "C57 mouse, skin", "setting": "intravenous, 0.037 MBq, 4 h", "endpoint": "tissue uptake", "result": "0.04 ± 0.03 %ID/g"}
{"Compound": "[2H]C([2H])([18F])Oc1cc(C(=O)OCC2CCN(CCCC)CC2)ccc1N", "test": "5-HT4 receptor binding, PET", "system": "rhesus monkey (Macaca mulatta), brain thalamus", "setting": "dose not given, baseline scan, unit not given", "scale": "relative to: cerebellum reference region", "endpoint": "binding potential BPND", "result": "0.38 ± 0.09"}
{"Compound": "CN1CCCNC(=O)c2cccc(c2)C(=O)NCCCN(C)CCCNc2cccc3c2C(=O)c2cccc(c2C3=O)NCCC1", "target or system": "SAS", "test": "RNA-Seq, measured: BTK mRNA", "setting": "1 µM, 6 h", "scale": "relative to: untreated cells", "endpoint": "log2 fold change", "result": 4.66}
{"Compound": "C[n+]1ccc(/C=N/NC(=O)c2ccc3ccc(C(=O)N/N=C/c4cc[n+](C)c5ccccc45)nc3n2)c2ccccc21", "target or system": "telomeric G4 DNA hybrid-2", "test": "FRET melting", "setting": "1 µM, DNA 0.2 µM", "endpoint": "ΔTm", "result": "26.3 ± 0.8 °C"}
{"Compound": "COC1CN([C@H]2CC[C@H]([C@@]3(C)Oc4c(Cl)cc(C(=O)NCc5c(SC)cc(C)[nH]c5=O)c(C)c4O3)CC2)C1", "test": "RNA-seq, measured: LPAR1", "system": "human, whole blood", "setting": "dose not given, 24 h", "scale": "relative to: pretreatment baseline", "endpoint": "log2 fold change", "result": 1.85}
{"Compound": "O=C(N/N=C/c1ccc(C[n+]2ccccc2)cc1)c1cncc(C(=O)N/N=C/c2ccc(C[n+]3ccccc3)cc2)n1", "target or system": "telomeric G4 DNA hybrid-2", "test": "FRET melting", "setting": "1 µM, DNA 0.2 µM, with: duplex DNA competitor 10 µM", "endpoint": "ΔTm", "result": "13.6 ± 0.9 °C"}
{"Compound": "CC(=O)[O-].O.O.[O-]c1ccc(Br)cc1C=NCCN1CCOCC1.[Zn+2]", "test": "superoxide scavenging", "setting": "80 µM", "endpoint": "inhibition", "result": "12.3%"}
{"note": "Some of these lines once more:"}
{"Compound": "CC(C)(C)c1cc(-c2ccc3cccnc3n2)nc(-c2ccc3cccnc3n2)c1.COc1ccncc1.[Cl-].[Cl-].[Ru+2].c1ccc2cc3nc4c5cccnc5c5ncccc5c4nc3cc2c1", "target or system": "B16-F10", "test": "resazurin", "setting": "with: light 733 nm, 9 mW, 100 J/cm2", "endpoint": "EC50", "result": "2.41 µM"}
{"Compound": "C[n+]1ccc(/C=N/NC(=O)c2ccc3ccc(C(=O)N/N=C/c4cc[n+](C)c5ccccc45)nc3n2)c2ccccc21", "target or system": "telomeric G4 DNA hybrid-2", "test": "FRET melting", "setting": "1 µM, DNA 0.2 µM", "endpoint": "ΔTm", "result": "26.3 ± 0.8 °C"}
{"Compound": "Cc1ncsc1-c1ccc(C(C)NC(=O)C2CC(O)CN2C(=O)C(NC(=O)CCCCCCCCCCN2CCCC(Nc3ncc(Cl)c(Nc4ccccc4S(=O)(=O)C(C)C)n3)C2)C(C)(C)C)cc1 (stereo not drawn)", "target or system": "22Rv1", "test": "RNA-seq, measured: LYSMD1 mRNA", "setting": "concentration not given", "scale": "relative to: DMSO", "endpoint": "log2 fold change", "result": -1.1}
